{"data": "Measured values collected from several papers", "CDK4 with cyclin D3": "Cyclin-dependent kinase 4, with cyclin D3 (CDK4, Homo sapiens, UniProt P11802)", "CDK4": "Cyclin-dependent kinase 4 (CDK4, Homo sapiens, UniProt P11802)", "CDK4 with cyclin D1": "Cyclin-dependent kinase 4, with cyclin D1 (CDK4, Homo sapiens, UniProt P11802)", "note": "Each line is one published result; not all experiments were run side by side."}
{"SMILES": "CNC(=O)C1CCN(c2cc(C)c(F)cc2NC(=O)c2ccc(-c3cc(O)ccc3C)c(C)c2)CC1", "target": "CDK4 with cyclin D3", "test": "binding, competition with immobilised ligand", "setting": "1 µM", "remaining binding [%]": 100}
{"SMILES": "C=CC(=O)N1CCCC(n2c(=O)c3ncccc3n(Cc3ccc(Oc4ccccc4)cc3)c2=O)C1 (stereo not shown)", "target": "CDK4", "test": "cell-free assay, competition with immobilised ligand", "setting": "1 µM", "remaining binding [%]": 83}
{"SMILES": "COc1cc(Nc2nccc(-c3cnn4nc(OC)ccc34)n2)cc(C(F)(F)F)c1", "target": "CDK4", "test": "binding, competition with immobilised ligand", "setting": "1 µM", "remaining binding [%]": 100}
{"SMILES": "CCN1CCN(Cc2ccc(C(=O)Nc3ccc(C)c(NCc4cnc5[nH]ccc5c4OC)c3)cc2C(F)(F)F)CC1", "target": "CDK4 with cyclin D1", "test": "binding, competition with immobilised ligand", "setting": "1 µM", "remaining binding [%]": 100}
{"SMILES": "Cc1ccc(-c2c(/C=C(\\C#N)C(=O)NC(C)C)n(CCCO)c3ncnc(N)c23)cc1", "target": "CDK4 with cyclin D1", "test": "cell-free assay, competition with immobilised ligand", "setting": "1 µM", "remaining binding [%]": 100}
{"SMILES": "COc1c(Cl)cccc1Nc1c(-c2ccncc2C#C[C@@]2(C)CCCN2C(=O)/C=C/CN(C)C)[nH]c2c1C(=O)NCC2", "target": "CDK4 with cyclin D3", "test": "binding, competition with immobilised ligand", "setting": "3 µM", "remaining binding [%]": 91}
{"SMILES": "C=CC(=O)N1CCc2ccc(-n3c(=O)ccc4cnc5ccc(-c6cnn(C)c6)cc5c43)cc21", "target": "CDK4 with cyclin D1", "test": "KINOMEscan", "setting": "1 µM", "how to read": "reference: DMSO control", "remaining binding [%]": 94}
{"SMILES": "CC(C)=CC1OC(C)(C)C2C=C3C(=O)C(Cl)=CC(O)C3C3C(O)C4OC4C(=O)C132 (stereo not shown)", "target": "CDK4 with cyclin D1", "test": "cell-free assay, competition with immobilised ligand", "setting": "10 µM", "remaining binding [%]": 81}
{"SMILES": "O=C(Nc1cc(-c2ccnc3[nH]ccc23)c(Cl)cn1)[C@H]1CCC[C@@H](NC(=O)C(F)(F)F)C1", "target": "CDK4 with cyclin D3", "test": "kinome scan", "setting": "0.1 µM", "how to read": "reference: control", "remaining binding [%]": 10}
{"SMILES": "C[C@]1(O)CCCN(c2nc(Nc3ccc(S(=O)(=O)N[C@H]4CC[C@H](CN5CCN(c6ccc(C7CCC(=O)NC7=O)cc6F)CC5)CC4)cc3)ncc2C(F)(F)F)C1 (stereo partly shown)", "target": "CDK4 with cyclin D3", "test": "binding, competition with immobilised ligand", "setting": "1 µM", "remaining binding [%]": 52}
{"SMILES": "Nc1ncc2c(n1)-c1c([nH]c3ccc(C4=CCOCC4)cc13)CCC2", "target": "CDK4 with cyclin D1", "test": "binding, competition with immobilised ligand", "setting": "1 µM", "remaining binding [%]": 97}
{"SMILES": "Cc1cnc2nc1Nc1cccc(c1)COC/C=C/COCc1cc(ccc1OCCN1CCOCC1)N2", "target": "CDK4 with cyclin D1", "test": "binding", "setting": "0.1 µM", "remaining binding [%]": 100}
{"SMILES": "CNC1C[S+]2CC[S+]3CC[S+](C1)[Ru-4]321([N]=C=S)[n]2c3ccc(OC)cc3c3c4c(c5cc(F)c[n+]1c5c32)C(=O)NC4=O (stereo not shown)", "target": "CDK4 with cyclin D3", "test": "KinomeScan", "setting": "0.1 µM", "how to read": "reference: untreated", "remaining binding [%]": 100}
{"note": "For quick reference, copied from above:"}
{"SMILES": "COc1cc(Nc2nccc(-c3cnn4nc(OC)ccc34)n2)cc(C(F)(F)F)c1", "target": "CDK4", "test": "binding, competition with immobilised ligand", "setting": "1 µM", "remaining binding [%]": 100}
{"SMILES": "CCN1CCN(Cc2ccc(C(=O)Nc3ccc(C)c(NCc4cnc5[nH]ccc5c4OC)c3)cc2C(F)(F)F)CC1", "target": "CDK4 with cyclin D1", "test": "binding, competition with immobilised ligand", "setting": "1 µM", "remaining binding [%]": 100}
